{"data": "Results gathered from unrelated publications", "organism": "HIV-1", "note": "Lines come from different studies, so protocols differ. Numbers after ± are the reported error."}
{"SMILES": "Cl.Cl.Cl.Cl.Cl.Cl.Cl.Cl.Cl.Cl.Cl.Cl.NC[C@@H]1O[C@H](O[C@H]2[C@@H](O)[C@H](O[C@@H]3[C@@H](O)[C@H](N)C[C@H](N)[C@H]3O[C@H]3O[C@H](CN)[C@@H](O)[C@H](O)[C@H]3N)O[C@@H]2Cn2cc(CCCCCCc3cn(C[C@H]4O[C@@H](O[C@@H]5[C@@H](O)[C@H](N)C[C@H](N)[C@H]5O[C@H]5O[C@H](CN)[C@@H](O)[C@H](O)[C@H]5N)[C@H](O)[C@@H]4O[C@H]4O[C@@H](CN)[C@@H](O)[C@H](O)[C@H]4N)nn3)nn2)[C@H](N)[C@@H](O)[C@@H]1O", "test": "HIV cytopathic effect, neutral red", "test system": "MT-2", "measurement": "maximum protection", "result": "33%"}
{"SMILES": "CC[C@H](C)[C@H](NC(=O)[C@H](C)NC(=O)[C@H](CCC(=O)O)NC(C)=O)C(=O)NC1CCCC=CCCCC(C(=O)N[C@@H](CCC(N)=O)C(=O)N[C@@H](CC(C)C)C(=O)N[C@@H](CC(C)C)C(=O)N[C@@H](Cc2ccccc2)C(=O)N[C@H](C(=O)N[C@@H](Cc2c[nH]cn2)C(=O)N[C@@H](Cc2ccccc2)C(=O)N[C@@H](CCCNC(=N)N)C(=O)N[C@H](C(=O)NCC(N)=O)[C@@H](C)CC)[C@@H](C)CC)NC(=O)[C@H](CC(C)C)NC(=O)[C@H]([C@@H](C)CC)NC(=O)[C@H](CCCNC(=N)N)NC1=O (some centres unmarked)", "test": "viral replication, luciferase reporter", "test system": "MT-4, NL4-3", "measurement": "active concentration", "result": "> 2.5 µM"}
{"SMILES": "Cc1nc([C@H](NC(=O)c2ccc(-c3ccc(Cl)cc3)[nH]2)[C@H]2CCCCN2)sc1CO", "test": "viral entry", "test system": "TZM-bl, panel of 56 Env pseudoviruses", "setting": "up to 2 µM", "measurement": "sensitive viruses", "result": "71%"}
{"SMILES": "N=C(N)NCCC[C@@H]1NC(=O)[C@H](Cc2ccc(O)cc2)NC(=O)[C@H](CO)N2CC[C@@H](C2=O)N2CC[C@H](NC(=O)[C@@H]3CCCN3C(=O)[C@H](Cc3ccc(O)cc3)NC1=O)C2=O", "test": "Alu-PCR qPCR", "test system": "HeLa-CD4", "setting": "concentration not given, 18 h", "measurement": "proviral integration", "result": "inhibited"}
{"SMILES": "CC(C)N1CCn2cc(C(=O)NCc3ccc(F)cc3F)c(=O)c(O)c2C1=O", "test": "single-round infection", "setting": "integrase E138K/Q148K vector", "scale": "baseline: cpd over cabotegravir", "measurement": "antiviral potency ratio", "result": "> 12"}
{"SMILES": "CC(=O)N[C@@H](CS)C(=O)N[C@@H](CO)C(=O)N[C@@H](CO)C(=O)N[C@@H](Cc1c[nH]c2ccccc12)C(=O)N[C@@H](Cc1ccc(O)cc1)C(=O)N1CCC[C@H]1C(=O)N[C@@H](Cc1ccccc1)C(=O)N[C@@H](CO)C(=O)N[C@@H](CCC(N)=O)C(=O)N[C@@H](Cc1ccc(O)cc1)C(=O)N[C@@H](CCC(N)=O)C(=O)N[C@@H](Cc1c[nH]c2ccccc12)C(=O)N[C@@H](Cc1c[nH]c2ccccc12)C(=O)N[C@@H](CCCCN)C(N)=O", "test system": "89.6 (R5/X4)", "setting": "concentration not given", "measurement": "neutralisation activity", "result": "inactive"}
{"SMILES": "CC[C@H](C)[C@H](N)C(=O)N[C@@H](CO)C(=O)N[C@@H](Cc1ccccc1)C(=O)N[C@@H]1CSCc2ccc(cc2)-c2ccc(cc2)CSC[C@@H](C(=O)N[C@@H](CCC(=O)O)C(=O)N[C@@H](CO)C(=O)NCC(=O)N[C@@H](CO)C(N)=O)NC(=O)[C@H](Cc2ccc(O)cc2)NC(=O)[C@H](Cc2ccc(O)cc2)NC(=O)[C@H](CC(=O)O)NC(=O)[C@H](CC(C)C)NC(=O)[C@H](CC(C)C)NC(=O)[C@H](CCC(=O)O)NC1=O", "test": "viral entry, single-cycle pseudovirus", "test system": "Env PVO, subtype B", "measurement": "IC50", "result": "3.5 ± 0.1 µM"}
{"SMILES": "Cc1cn(C2CC(N(C)C)C(CO)O2)c(=O)[nH]c1=O (centres unmarked)", "test": "MTT", "test system": "MT-4, ROD and IIIB", "setting": "concentration not given", "measurement": "antiviral activity", "result": "inactive"}
{"SMILES": "CC(=O)CCC1C(=O)NC(C(C)C)C(=O)NC(Cc2cccc(O)c2)C(=O)N2CCCC(N2)C(=O)OC(C(C)=CC=CC(=O)N2CCCCO2)CC=CC=CC(O)C(C)C1O (centres unmarked)", "test": "viral replication", "test system": "CD4 HeLa", "measurement": "maximal inhibition", "result": "> 95%"}
{"SMILES": "O=C(NCc1ccc(F)cc1F)c1c(O)c2cccnc2n(O)c1=O", "test": "viral infectivity", "test system": "integrase R263K", "measurement": "EC50", "result": "0.036 ± 0.008 µM"}
{"SMILES": "COc1ccc(-n2c(SCC#N)nnc2[C@H](Cc2ccccc2)NC(=O)Cc2c(C)[nH]c3ccccc23)cc1", "test system": "MT-4, wild type", "scale": "baseline: CC50 over EC50", "measurement": "selectivity index", "result": 163}
{"SMILES": "CC[C@H](C)[C@H](N)C(=O)N[C@@H](CC(N)=O)C(=O)N[C@@H](CC(N)=O)C(=O)N[C@H](C(=O)N1CC(n2cc([C]34[CH]5[CH]6[CH]7[CH]3[Fe]6754389%10[CH]4[CH]3[CH]8[CH]9[CH]4%10)nn2)C[C@H]1C(=O)N[C@@H](Cc1c[nH]c2ccccc12)C(N)=O)[C@@H](C)CC (some centres unmarked)", "test": "viral infection", "test system": "Bal.01", "setting": "in mixture with other component", "scale": "baseline: compound alone", "measurement": "potency fold improvement", "result": "~7 fold"}
{"SMILES": "CN1CCn2cc(C(=O)NCc3ccc(F)cc3F)c(=O)c(O)c2C1=O", "test": "single-round infection", "setting": "integrase G140S/Q148H vector", "scale": "baseline: cpd over cabotegravir", "measurement": "fold loss of potency", "result": "~4 fold"}
{"SMILES": "CC(=O)N[C@@H](CS)C(=O)N[C@@H](CO)C(=O)N[C@@H](CO)C(=O)N[C@@H](Cc1c[nH]c2ccccc12)C(=O)N[C@@H](Cc1ccccc1)C(=O)N1CCC[C@H]1C(=O)N[C@@H](Cc1ccccc1)C(=O)N[C@@H](CO)C(=O)N[C@@H](CCC(N)=O)C(=O)N[C@@H](Cc1ccc(O)cc1)C(=O)N[C@@H](CCC(N)=O)C(=O)N[C@@H](Cc1c[nH]c2ccccc12)C(=O)N[C@@H](Cc1c[nH]c2ccccc12)C(=O)N[C@@H](CCCCN)C(N)=O", "test system": "NL4-3 (X4)", "setting": "concentration not given", "measurement": "neutralisation activity", "result": "active"}
